# Assay results collected from several papers.
# Every numbered part comes from another study and shows a few of its results, in no order.

# Study 1
# Target: Ras GTPase-activating protein-binding protein 1, RRM domain (G3BP1, Homo sapiens, UniProt Q13283)
# UniProt Q13283, sequence (whole entry, looked up): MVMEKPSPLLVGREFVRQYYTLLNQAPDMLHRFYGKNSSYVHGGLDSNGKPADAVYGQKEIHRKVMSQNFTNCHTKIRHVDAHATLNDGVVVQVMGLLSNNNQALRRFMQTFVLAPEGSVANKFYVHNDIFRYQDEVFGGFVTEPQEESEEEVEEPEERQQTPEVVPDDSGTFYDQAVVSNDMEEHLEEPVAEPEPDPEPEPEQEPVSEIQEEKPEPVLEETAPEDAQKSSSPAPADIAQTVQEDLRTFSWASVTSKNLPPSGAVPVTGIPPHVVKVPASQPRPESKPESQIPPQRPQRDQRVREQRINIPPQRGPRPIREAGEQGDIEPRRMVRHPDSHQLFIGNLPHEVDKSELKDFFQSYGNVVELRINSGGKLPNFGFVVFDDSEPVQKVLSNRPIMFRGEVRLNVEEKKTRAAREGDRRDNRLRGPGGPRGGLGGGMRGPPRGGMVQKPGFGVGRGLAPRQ
# Method: RNA Bind-n-Seq
# Form: RNA
# Medium: in vitro
# Concentration: 1 µM
# Setting: whole 134-nt RNA, ends assumed
# Together with: 150 mM KCl
# Relative to: input library
# Direction: higher = stronger binding
# Constant ends, left off below: GGGAGUUCUACAGUCCGACGAUC … UGGAAUUCUCGGGUGUCAAGG
Oligonucleotide,log2 enrichment
UCCUCAAGUCCUGUGCUACACAUCGUAUGUACCGAAUCGGGGCGGCGGCGGAAAGUAUUAUGUUACGCCGUUCGGAUCUGCACUUCCAGC,-0.168
AGUCCUGUGCUACACAUCGUAUGUACCGAAUCGGGAAAAGGGGAAAAGGGGAAAAGGAAAGUAUUAUGUUACGCCGUUCGGAUCUGCACU,-0.0286
UGGGAGGUGGAUUUUGUUUAUUUUUUUAGCUCAUUUCCAGGGGUGGGAAUUUUUUUUUAAUAUGUGGCAUGAAUAAAGUUGUUUUUGAAA,1.94
CACAGACAACACGCACCCACACAGACAUAGAGGGAAGGGGUUGGGAUGGGGACAGGGUGCACAGCAGGGCGGGGUAGGACCCCAGCCCCU,0.0135
UUGCCACUCUAAAUUCAGAAGAGGAGAGCGACCCUCCAACCUACAAGGAUGCCUUCCCUCCACUUCCUGAGAAAGCUGCUUGCCUGGAAA,-0.0639
AAGUCCUGUGCUACACAUCGUAUGUACCGAAUCGGAAAAAGGAAAAAGGGAAAAAGGAAAGUAUUAUGUUACGCCGUUCGGAUCUGCACU,0.0766
CACAGACAACACGCACCCACACAGACACAGAGGGAAGGGGUUGGGAUGGGGACAGGGUGCACAGCAGGGCGGGGUAGGACCCCAGCAAAU,-0.172
GUCCUGUGCUACACAUCGUAUGUACCGAAUCGGAAAAAAGGAAAAAAGGAAAAAAGGGAAAGUAUUAUGUUACGCCGUUCGGAUCUGCAC,0.0402
UGGCCCUGGUGGCAUGCGGGGAGGAAGAGGUGGCCUCAUGGAUCGUGGUGGUCCCGGUGGAAUGUUCAGAGGUGGCCGCGGUGGAGACAG,0.501
GUCCUGUGCUACACAUCGUAUGUACCGAAUCAAAUUUUUAAAUUUUUAAACCCCCAAAAAAGUAUUAUGUUACGCCGUUCGGAUCUGCAC,-1.46
GCAGGAAGUAAAAACAAAUGGAAAUGCUUCGGAUAGUGGCAGGGGUGGGGGUUGCUAAGGAAAGGGUGGGAUGGGAGGGGGUAAAGAGUU,1.57
CAAAGACAACACGCACCCACACAGACACAGAGGGAAGGGGUUGGGAUGGGGACAGGGUGCACAGCAGGGCGGGGUAGGACCCCAGCCCCU,-0.166
UCCUGUGCUACACAUCGUAUGUACCGAAUCGGGAAAAAAGGGAAAAAAGGAAAAAAGGGAAAGUAUUAUGUUACGCCGUUCGGAUCUGCA,0.0425
AGUCCUGUGCUACACAUCGUAUGUACCGAAUCGGUUUUUUUGGUUUUUGGUUUUUGGAAAGUAUUAUGUUACGCCGUUCGGAUCUGCACU,-0.171

# Study 2
# Target: Histone acetyltransferase KAT6A, both winged helices, GST fusion (KAT6A, Homo sapiens, UniProt Q92794, residues 1-181)
# Method: protein binding microarray
# Form: double-stranded DNA, one strand shown
# Medium: in vitro
# Concentration: not given
# Setting: 8-mer, flanks averaged, mean of 2 arrays, mostly near background
# Relative to: not given
# Direction: higher = stronger binding
# Target sequence (chain): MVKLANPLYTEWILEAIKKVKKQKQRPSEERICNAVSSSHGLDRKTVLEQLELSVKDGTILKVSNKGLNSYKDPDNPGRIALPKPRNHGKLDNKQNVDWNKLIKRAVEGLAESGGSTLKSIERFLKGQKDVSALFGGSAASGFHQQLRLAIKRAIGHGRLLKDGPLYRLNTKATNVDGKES
Oligonucleotide,E-score
CGATCGAC,0.045
GTTAGGTA,-0.0382
AGATGAAC,-0.041
GGCTTGTA,-0.0821
ACTCCGGC,0.155
AACTCTCA,-0.0857
CCACTCTC,-0.0982
ATAGAGTC,0.0607
ATTAAGGA,-0.0348
ACTGATTC,-0.0169
AAGCGCCA,0.105
CTTTGCAA,-0.115
CATTCAGC,-0.0403
ATTTCCAA,-0.162
ATTGAGAA,-0.103
CGGACACA,0.177
ACGTCTCG,0.122
AACAGTGT,-0.206

# Study 3
# Target: RING finger protein unkempt homolog, zinc fingers 1-6, SBP tag (UNK, Homo sapiens, UniProt Q9C0B0, residues 30-357)
# UniProt Q9C0B0, sequence (30-357, looked up): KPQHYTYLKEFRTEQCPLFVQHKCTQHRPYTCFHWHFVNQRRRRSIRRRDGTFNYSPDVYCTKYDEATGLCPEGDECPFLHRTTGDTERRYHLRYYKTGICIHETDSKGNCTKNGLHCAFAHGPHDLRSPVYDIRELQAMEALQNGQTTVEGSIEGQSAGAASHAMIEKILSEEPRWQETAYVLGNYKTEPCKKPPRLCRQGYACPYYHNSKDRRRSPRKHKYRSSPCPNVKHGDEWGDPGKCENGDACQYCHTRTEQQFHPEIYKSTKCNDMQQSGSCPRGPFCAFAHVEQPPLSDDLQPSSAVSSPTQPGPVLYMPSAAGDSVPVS
# Method: RNA Bind-n-Seq
# Form: RNA
# Medium: in vitro
# Concentration: 100 nM
# Setting: RNA with constant flanks, vertebrate orthologous sites, ends assumed
# Relative to: input RNA pool
# Direction: higher = stronger binding
# Constant ends, left off below: GGGAGUUCUACAGUCCGACGAUC … CAACAGAGGAUUGAGCAUCA
Oligonucleotide,bound/input enrichment [ratio]
AAAUUUAUUUCAUGCCCUGGACGCCCUACCGCACCGAUACUUUAAUAGAAUAUGCUUCUUUAGAAGAUUUCCAAAACAGUCGCCAAACAACAACAUACAAACUCCCAAAUCGAGUCGAUG,1.51
CUACACCAGAUAUUUUAACUGUUUUAAAGUUACAAACAAGCUUUGCUUUUUGCAUUUAAAUAGAAUACUUUUAUAUUUUAAGUGCUUCAGAUGUGUGGAGGUGUUAGUUUGCUCUUAUAA,0.551
UUACAGUCAUUGAUGGACUCUAUUUUUUUAUUAUUACUUGGACCUUGGUCGUUUUUAUACUAGCAAAAUGUCUUGUUUUAAUUUGUGUUUUUGGGGGGGUGGGAGUGAACUUGCUGAUUC,1.49
ACGCUUUGAUAUUAAAUUUGACAUAAGAAGCAGCUGAUUGUAAGCACAACUCUUUCCUCCUAGCCAUUUAAAAAAGGUAAAAGACAAAAAAGAAAACCUACUAGUCUUGAACAAACUGUC,0.65
UUCAACACCACUGGGUAGAAGGAUAAGGAUGGAGCAGCCAUCAUAGUUAGAAAGGAUCCAUCUUUGUCCCCAGACCAAGGUGGCAGCAGAUUUCUCCCUACCAGUCUAAAGAGCCUAGCC,0.278
GCCUCUAGCAGGCAAUUUCAGGGAGAGAUAGGCUUCAGGGAAUAUAAAUUUAUUUAAUAUUAGUGUUCUUGAAGUAUAAACUUGAUAUAAUUGUUUUGGGAGGGGGACAAUGAUGAUGAC,1.43
AUCACCUAGUUAGGGGUAACCAUUAAUUUAUUUUAAUAAAGGAGAUGCUGAAAGUCCUAUUAGUACUGAGUUUAGUUGGAGAACUGAGAUAAGGAUCUUUGAGGUAAUUCUAAAAUUCAA,0.785
GAAGAAUAGCAUAAGAAGUUGUGGUCAGAAAAGUUAGGAGCAGUUGGGGAAGGAAGUUACAAAUGUCAAAUAUCAAGAGCCAGAUGGAUAAAAUGUAGAGAUGAAGGUCAUUGAAACUCA,0.666
AAGCCAUUUUUUCCACAUUUUCUGUAAAUAAUGGAUAAUCAUUUUUAAAAAAUUUAUUUUUAGUGCUGUUUUAACAAUGUGGAUAGAUCAUAAAUGUACUUGCUGAAUUCAAUCAUUUUU,0.147
AGCUUCUGGUGACAUUUGGCCUGGUCUUUCAGCAUAUGAUAACAGUCCAAGGUCGCCCCAUAGUCCUUCUAUUGCCAGCCCACCCAGUCAGAGUUCAUCUUGCUCUGAUGCCCCCUUGCU,0.876
ACUGUUGUUAAGCACUGUGUUCCAGACCAUGUCUGACUUAGUGUAACCUAGGAGAUUUUAUAGUUUUAUUUUAAUGAAAUCCUGAUUGACGCACAGCAGUGGAGAGAACAGUCUUUUACU,1.15

# Study 4
# Target: Prothrombin, mature alpha-thrombin (F2, Homo sapiens, UniProt P00734)
# Method: aptamer microarray, sandwich
# Form: DNA with 2'F-ANA
# Medium: in vitro
# Concentration: 200 nM
# Setting: whole 15-mer aptamer, many near background
# Together with: Cy3 exosite-II aptamer, 400 nM
# Direction: higher = stronger binding
# Oligonucleotide: GGTTGGTGTGGTTGG
Modification,mean fluorescence intensity
2'F-ANA at 1 4 6 9 11 12 13 15,134 a.u.
2'F-ANA at 1 2 4 5 7 8 10 11 13 14,81.3 a.u.
2'F-ANA at 2 3 4 6 7 12 15,800 a.u.
2'F-ANA at 3 9 11 12 14 15,615 a.u.
2'F-ANA at 1 2 3 4 10 14,50.6 a.u.
2'F-ANA at 2 4 8 9 15,364 a.u.
2'F-ANA at 1 2 3 5 6 8 9 10 11 12 14 15,62.4 a.u.
2'F-ANA at 1 2 3 4 5 6 8 9 11 12 15,105 a.u.
2'F-ANA at 2 6 7 8 11 12 15,542 a.u.
2'F-ANA at 1 2 3 4 5 8 10 13,46.4 a.u.
2'F-ANA at 1 2 3 5 6 7 8 9 10 11 14 15,58.2 a.u.
2'F-ANA at 4 15,393 a.u.
2'F-ANA at 1 5 6 8 11 13 15,52.6 a.u.
2'F-ANA at 1 2 5 8 11 12,92.8 a.u.
2'F-ANA at 2 4 6 7 9 10 12 14,79.9 a.u.
2'F-ANA at 3 7 10 14 15,537 a.u.
2'F-ANA at 1 4 7 14 15,140 a.u.
2'F-ANA at 1 2 3 4 6 10 11 13 14,51.9 a.u.
2'F-ANA at 2 4 5 6 7 8 10 11 12 14,49.4 a.u.
2'F-ANA at 2 5 6 9 12 14 15,46.2 a.u.
2'F-ANA at 1 2 4 5 7 8 9 11 13,48.8 a.u.
2'F-ANA at 4 6 8 9 11 14 15,72.3 a.u.

# Study 5
# Target: Sal-like protein 4, full length isoform B (SALL4, Homo sapiens, UniProt Q9UJQ4-2, residues 1-616)
# Method: universal PBM
# Form: double-stranded DNA, one strand shown
# Medium: in vitro
# Concentration: not given
# Setting: 8-mer, flanks averaged, mean of replicates
# Direction: higher = stronger binding
Oligonucleotide,E-score
CTTCGAGC,-0.236
ACTAGTCA,0.0497
AAAGTGAC,0.0455
CGTTGCCC,-0.318
CAGGCCGC,-0.332
ACATGCTA,0.0531
CCAGGAAC,-0.32
GGCTAACA,-0.19
AAACGTCT,0.13
AATCCGCA,-0.117
AGAGAACC,-0.256
GGCTTCGA,-0.172
ACAGATTA,0.0745
ACCTGTAA,0.123
AAATTCCG,0.166
ACGCTTGC,-0.133
GTTTTACA,0.0551
ACTGCGAT,0.00912
AATTCATA,0.403
CGAATTAG,-0.0127
AGGTTGGA,-0.0492
GCAGACAA,-0.0105
ACCATGTG,0.0347
